{"data": "Measurements collected from several papers", "organism": "Escherichia coli", "note": "Protocols differ between the studies behind these lines. ± gives the spread as reported."}
{"Compound": "COc1cc2c(cc1OC)C1Cc3ccc(OC)c(OC)c3C[NH+]1CC2.[Cl][Fe-]([Cl])([Cl])[Cl] (stereo not drawn)", "conditions": "24 h, 37 °C", "measurement": "MBC", "value": "> 1600 µM"}
{"Compound": "CC[C@H](C)[C@H](NC(=O)[C@H](CC1CCCCC1)NC(=O)[C@H](CC(C)C)NC(=O)[C@@H](N)CCCN)C(=O)N[C@H](Cc1ccccc1)C(=O)N[C@@H](Cc1cn(Cc2ccccc2)cn1)C(N)=O", "test": "bacterial growth", "system": "ATCC 35218", "measurement": "IC50", "value": "> 20 µg/mL"}
{"Compound": "CCCCCCCCCC(=O)Oc1c(C)c(OC)c2c(/C=C/c3ccccc3)c(CCCCCCCC)c(=O)oc2c1C", "test": "microbial growth, well diffusion", "system": "ATCC25922", "conditions": "5 µg/mL", "measurement": "inhibition zone", "value": "12 mm"}
{"Compound": "CO[C@@H]1[C@@H](OC)[C@H]2O[C@H]3[C@H](OC)[C@@H](OC)[C@@H](O[C@H]4[C@H](OC)[C@@H](OC)[C@@H](O[C@H]5[C@H](OC)[C@@H](OC)[C@@H](O[C@H]6[C@H](OC)[C@@H](OC)[C@@H](O[C@H]7[C@H](OC)[C@@H](OC)[C@@H](O[C@H]8[C@H](OC)[C@@H](OC)[C@@H](O[C@@H]1[C@@H](Cn1cc(CCCC(=O)N[C@H]9CCOC9=O)nn1)O2)O[C@@H]8Cn1cc(CCCC(=O)N[C@H]2CCOC2=O)nn1)O[C@@H]7Cn1cc(CCCC(=O)N[C@H]2CCOC2=O)nn1)O[C@@H]6Cn1cc(CCCC(=O)N[C@H]2CCOC2=O)nn1)O[C@@H]5Cn1cc(CCCC(=O)N[C@H]2CCOC2=O)nn1)O[C@@H]4Cn1cc(CCCC(=O)N[C@H]2CCOC2=O)nn1)O[C@@H]3Cn1cc(CCCC(=O)N[C@H]2CCOC2=O)nn1", "test": "LuxR reporter, antagonist", "system": "DH5α sensor strain", "conditions": "10 µM, together with: OHHL 200 nM", "measurement": "inhibition", "value": "15 ± 1%"}
{"Compound": "CC(CCCOC(=O)CCC[N+](C)(C)C)C1CCC2C3CCC4CC(OC(=O)CCC[N+](C)(C)C)CCC4(C)C3CCC12C (stereo not drawn)", "test": "microbial growth, disc diffusion", "system": "ATCC25922", "conditions": "31.2 µg/disc, 24 h", "measurement": "inhibition zone", "value": "12 mm"}
{"Compound": "O=C(CCCc1cn(C[C@H]2O[C@@H]3O[C@H]4[C@H](O)[C@@H](O)[C@@H](O[C@H]5[C@H](O)[C@@H](O)[C@@H](O[C@H]6[C@H](O)[C@@H](O)[C@@H](O[C@H]7[C@H](O)[C@@H](O)[C@@H](O[C@H]8[C@H](O)[C@@H](O)[C@@H](O[C@H]9[C@H](O)[C@@H](O)[C@@H](O[C@H]2[C@H](O)[C@H]3O)O[C@@H]9CO)O[C@@H]8CO)O[C@@H]7CO)O[C@@H]6CO)O[C@@H]5CO)O[C@@H]4CO)nn1)N[C@H]1CCOC1=O", "test": "LuxR reporter, antagonist", "system": "DH5α sensor strain", "conditions": "100 µM, together with: OHHL 200 nM", "measurement": "inhibition", "value": "19 ± 4%"}
{"Compound": "CC(C)C1=CC2=CCC3C(C)(C(=O)OCCC[N+](C)(C)C)CCCC3(C)C2CC1 (stereo not drawn)", "test": "microbial growth, disc diffusion", "system": "ATCC25922", "conditions": "15.6 µg/disc, 24 h", "measurement": "inhibition zone", "value": "9 mm"}
{"Compound": "COc1c(C)c(OS(=O)(=O)c2ccccc2)c(C)c2c1C(=O)CC(c1ccccc1)O2 (stereo not drawn)", "test": "microbial killing, broth dilution", "system": "ATCC25922", "measurement": "MBC", "value": "> 5000 µg/mL"}
{"Compound": "OC[C@H]1O[C@@H]2O[C@H]3[C@H](O)[C@@H](O)[C@@H](O[C@H]4[C@H](O)[C@@H](O)[C@@H](O[C@H]5[C@H](O)[C@@H](O)[C@@H](O[C@H]6[C@H](O)[C@@H](O)[C@@H](O[C@H]7[C@H](O)[C@@H](O)[C@@H](O[C@H]1[C@H](O)[C@H]2O)O[C@@H]7CO)O[C@@H]6CO)O[C@@H]5CO)O[C@@H]4CO)O[C@@H]3CO", "test": "LuxR reporter, antagonist", "system": "DH5α sensor strain", "conditions": "4 µM, together with: OHHL 200 nM", "measurement": "inhibition", "value": "3 ± 7%"}
{"Compound": "O=c1c(O)ccc(-c2ccccc2)cc1O", "test": "microbial growth, broth dilution", "system": "ATCC35218", "measurement": "MIC80", "value": "66.7 µM"}
{"Compound": "COc1c(C)c(OC(=O)c2ccc3ccccc3c2)c(C)c(O)c1C(=O)/C=C/c1ccccc1", "test": "microbial killing, broth dilution", "system": "ATCC25922", "measurement": "MBC", "value": "> 5000 µg/mL"}
{"Compound": "CC[C@H](C)[C@H](NC(=O)[C@H](CC1CCCCC1)NC(=O)[C@H]1CCCN1C(=O)[C@@H](N)CCCN)C(=O)N[C@H](Cc1ccccc1)C(=O)N[C@@H](Cc1cn(Cc2ccccc2)cn1)C(N)=O", "test": "bacterial growth", "system": "ATCC 35218", "measurement": "IC50", "value": "> 20 µg/mL"}
{"Compound": "N=C(N)NCCC[C@@H]1NC(=O)[C@H](CCCNC(=N)N)NC(=O)[C@@H](C(c2ccccc2)c2ccccc2)NC(=O)[C@H](Cc2c[nH]c3ccccc23)NC(=O)[C@@H](C(c2ccccc2)c2ccccc2)NC(=O)[C@@H](CCCNC(=N)N)NC(=O)[C@@H](CCCNC(=N)N)NC1=O", "system": "ATCC BAA-2452", "conditions": "MIC", "measurement": "time to complete killing", "value": "3 to 4 h"}
{"Compound": "Cc1cccc(C(=O)Oc2cccccc2=O)c1", "test": "microbial growth, broth dilution", "system": "ATCC35218", "measurement": "MIC80", "value": "> 100 µM"}
{"Compound": "CO[C@@H]1[C@@H](OC)[C@H]2O[C@H]3[C@H](OC)[C@@H](OC)[C@@H](O[C@H]4[C@H](OC)[C@@H](OC)[C@@H](O[C@H]5[C@H](OC)[C@@H](OC)[C@@H](O[C@H]6[C@H](OC)[C@@H](OC)[C@@H](O[C@H]7[C@H](OC)[C@@H](OC)[C@@H](O[C@@H]1[C@@H](Cn1cc(CCCC(=O)N[C@H]8CCOC8=O)nn1)O2)O[C@@H]7Cn1cc(CCCC(=O)N[C@H]2CCOC2=O)nn1)O[C@@H]6Cn1cc(CCCC(=O)N[C@H]2CCOC2=O)nn1)O[C@@H]5Cn1cc(CCCC(=O)N[C@H]2CCOC2=O)nn1)O[C@@H]4Cn1cc(CCCC(=O)N[C@H]2CCOC2=O)nn1)O[C@@H]3Cn1cc(CCCC(=O)N[C@H]2CCOC2=O)nn1", "test": "LuxR reporter, antagonist", "system": "DH5α sensor strain", "conditions": "1 µM, together with: OHHL 200 nM", "measurement": "inhibition", "value": "3 ± 1%"}
{"Compound": "CC(CCCOC(=O)CCC[N+](C)(C)C)C1CCC2C3CCC4CC(OC(=O)CCC[N+](C)(C)C)CCC4(C)C3CC(OC(=O)CCC[N+](C)(C)C)C12C (stereo not drawn)", "test": "microbial growth, disc diffusion", "system": "ATCC25922", "conditions": "125 µg/disc, 24 h", "measurement": "inhibition zone", "value": "10 mm"}
{"Compound": "CC[C@H](C)[C@H](NC(=O)[C@H](CCCN)NC(=O)[C@H](CC(N)=O)NC(=O)[C@H](Cc1c[nH]c2ccccc12)NC(=O)[C@H](Cc1ccccc1)NC(=O)[C@H](CCCN)NC(=O)[C@H](CCCCNC(=N)N)NC(=O)[C@H](CC(C)C)NC(=O)[C@H](Cc1c[nH]c2ccccc12)NC(=O)[C@H](CCCN)NC(=O)[C@H](CCCCNC(=N)N)NC(=O)[C@H](CC(C)C)NC(=O)CNC(C)=O)C(=O)N[C@@H](CCCN)C(=O)N[C@@H](CCCCNC(=N)N)C(N)=O", "system": "ATCC 25922", "conditions": "concentration not given, together with: NaCl 150 mM", "how to read": "relative to: no added salt", "measurement": "MIC fold change", "value": "2 fold"}
{"Compound": "O=C(CCCc1cn(C[C@H]2O[C@@H]3O[C@H]4[C@H](O)[C@@H](O)[C@@H](O[C@H]5[C@H](O)[C@@H](O)[C@@H](O[C@H]6[C@H](O)[C@@H](O)[C@@H](O[C@H]7[C@H](O)[C@@H](O)[C@@H](O[C@H]8[C@H](O)[C@@H](O)[C@@H](O[C@H]9[C@H](O)[C@@H](O)[C@@H](O[C@H]2[C@H](O)[C@H]3O)O[C@@H]9Cn2cc(CCCC(=O)N[C@H]3CCOC3=O)nn2)O[C@@H]8Cn2cc(CCCC(=O)N[C@H]3CCOC3=O)nn2)O[C@@H]7Cn2cc(CCCC(=O)N[C@H]3CCOC3=O)nn2)O[C@@H]6Cn2cc(CCCC(=O)N[C@H]3CCOC3=O)nn2)O[C@@H]5Cn2cc(CCCC(=O)N[C@H]3CCOC3=O)nn2)O[C@@H]4Cn2cc(CCCC(=O)N[C@H]3CCOC3=O)nn2)nn1)N[C@H]1CCOC1=O", "test": "LuxR reporter, antagonist", "system": "DH5α sensor strain", "conditions": "20 µM, together with: OHHL 200 nM", "measurement": "inhibition", "value": "58 ± 18%"}
{"Compound": "Cc1ccnc(-c2cc(C(=O)NCCCCCC(=O)N[C@@H](CCCNC(=N)N)C(=O)N[C@@H](Cc3c[nH]c4ccccc34)C(=O)N[C@@H](CCCNC(=N)N)C(=O)N[C@@H](Cc3c[nH]c4ccccc34)C(=O)N[C@@H](CCCNC(=N)N)C(=O)N[C@@H](Cc3c[nH]c4ccccc34)C(N)=O)ccn2)c1", "system": "resistant", "conditions": "16 µM, light irradiation", "measurement": "reduction in viable count", "value": "≥ 3 log10 CFU"}
{"Compound": "O=C(CCCc1cn(C[C@H]2O[C@@H]3O[C@H]4[C@H](O)[C@@H](O)[C@@H](O[C@H]5[C@H](O)[C@@H](O)[C@@H](O[C@H]6[C@H](O)[C@@H](O)[C@@H](O[C@H]7[C@H](O)[C@@H](O)[C@@H](O[C@H]8[C@H](O)[C@@H](O)[C@@H](O[C@H]2[C@H](O)[C@H]3O)O[C@@H]8Cn2cc(CCCC(=O)N[C@H]3CCOC3=O)nn2)O[C@@H]7Cn2cc(CCCC(=O)N[C@H]3CCOC3=O)nn2)O[C@@H]6Cn2cc(CCCC(=O)N[C@H]3CCOC3=O)nn2)O[C@@H]5Cn2cc(CCCC(=O)N[C@H]3CCOC3=O)nn2)O[C@@H]4Cn2cc(CCCC(=O)N[C@H]3CCOC3=O)nn2)nn1)N[C@H]1CCOC1=O", "test": "LuxR reporter, agonist", "system": "DH5α sensor strain", "conditions": "1 µM", "measurement": "bioluminescence", "value": "890 ± 99 RLU"}
{"Compound": "O=C(Oc1cccccc1=O)c1ccccc1", "test": "microbial growth, broth dilution", "system": "ATCC35218", "measurement": "MIC80", "value": "> 100 µM"}
{"note": "A few entries again:"}
{"Compound": "CC(CCCOC(=O)CCC[N+](C)(C)C)C1CCC2C3CCC4CC(OC(=O)CCC[N+](C)(C)C)CCC4(C)C3CCC12C (stereo not drawn)", "test": "microbial growth, disc diffusion", "system": "ATCC25922", "conditions": "31.2 µg/disc, 24 h", "measurement": "inhibition zone", "value": "12 mm"}
{"Compound": "CO[C@@H]1[C@@H](OC)[C@H]2O[C@H]3[C@H](OC)[C@@H](OC)[C@@H](O[C@H]4[C@H](OC)[C@@H](OC)[C@@H](O[C@H]5[C@H](OC)[C@@H](OC)[C@@H](O[C@H]6[C@H](OC)[C@@H](OC)[C@@H](O[C@H]7[C@H](OC)[C@@H](OC)[C@@H](O[C@@H]1[C@@H](Cn1cc(CCCC(=O)N[C@H]8CCOC8=O)nn1)O2)O[C@@H]7Cn1cc(CCCC(=O)N[C@H]2CCOC2=O)nn1)O[C@@H]6Cn1cc(CCCC(=O)N[C@H]2CCOC2=O)nn1)O[C@@H]5Cn1cc(CCCC(=O)N[C@H]2CCOC2=O)nn1)O[C@@H]4Cn1cc(CCCC(=O)N[C@H]2CCOC2=O)nn1)O[C@@H]3Cn1cc(CCCC(=O)N[C@H]2CCOC2=O)nn1", "test": "LuxR reporter, antagonist", "system": "DH5α sensor strain", "conditions": "1 µM, together with: OHHL 200 nM", "measurement": "inhibition", "value": "3 ± 1%"}
